Measured values of several laboratories.
Protocols differ between the studies behind these lines. ± gives the spread as reported.
DRD2 long isoform: D(2) dopamine receptor, long isoform (DRD2, Homo sapiens, UniProt P14416)
UniProt P14416, sequence (whole entry, looked up): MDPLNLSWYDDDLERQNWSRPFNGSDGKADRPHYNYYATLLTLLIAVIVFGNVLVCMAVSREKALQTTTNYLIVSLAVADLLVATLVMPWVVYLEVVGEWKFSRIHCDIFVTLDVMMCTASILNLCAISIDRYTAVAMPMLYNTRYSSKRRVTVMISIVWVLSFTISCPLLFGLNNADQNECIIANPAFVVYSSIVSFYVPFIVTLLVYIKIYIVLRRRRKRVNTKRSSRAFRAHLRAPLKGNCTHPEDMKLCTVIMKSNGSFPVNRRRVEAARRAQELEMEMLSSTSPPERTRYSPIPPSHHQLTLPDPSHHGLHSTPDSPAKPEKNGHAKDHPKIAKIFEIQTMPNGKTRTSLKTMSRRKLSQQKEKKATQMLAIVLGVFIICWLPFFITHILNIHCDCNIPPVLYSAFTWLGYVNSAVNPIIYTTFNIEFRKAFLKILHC
DRD2: D(2) dopamine receptor (DRD2, Homo sapiens, UniProt P14416)

SMILES | target | assay | test system | setting | endpoint | result
CN1CCN(c2cn(C(=O)c3ccccc3)c3ccccc23)CC1 | DRD2 long isoform | binding, radioligand displacement | HEK293 membranes | 1 h, 37 °C, added: [3H]-raclopride | Ki | 162 ± 9 nM
CC(C)(CO)NCc1ccc(-c2cc(Cl)cc(Cl)c2)o1 | DRD2 | ligand displacement, radioligand | – | – | Ki | 329 nM
CC1Cc2ccccc2N1C(=O)CN1CCN(Cc2ccccc2)CC1 (centres unmarked) | DRD2 | ligand displacement, radioligand | – | – | Ki | > 10000 nM
Cc1[nH]c(C)c(S(=O)(=O)Nc2ccccc2)c1C(=O)N1CCCC1 | DRD2 | – | – | – | IC50 | > 100 µM
CC(C)n1ccc2c(N3CCN(CCCCOc4ccc5c(c4)NC(=O)CC5)CC3)cccc21 | DRD2 | cell-free assay, radioligand | – | – | Ki | 66.1 nM
OC(CN1CCN(c2nsc3ccccc23)CC1)c1cccs1 (centres unmarked) | DRD2 | ligand displacement, radioligand | – | – | Ki | 430 nM
CN1CCN(c2ccc3cnn(S(=O)(=O)c4cccc5ccccc45)c3c2)CC1 | DRD2 long isoform | binding, radioligand displacement | HEK293 membranes | 1 h, 37 °C, added: [3H]-raclopride | Ki | 973 ± 81 nM
Cc1[nH]c(C)c(S(=O)(=O)NC2CCCCC2)c1C(=O)N1CCCC1 | DRD2 | – | – | – | IC50 | > 100 µM
OCCNCc1ccc(-c2cc(Cl)cc(Cl)c2)o1 | DRD2 | ligand displacement, radioligand | – | – | Ki | 543 nM
CCCn1ccc2c(N3CCN(CCCCOc4ccc5c(c4)NC(=O)CC5)CC3)cccc21 | DRD2 | ligand displacement, radioligand | – | – | Ki | 60 nM
Cc1ccc(NS(=O)(=O)c2c(C)[nH]c(C)c2C(=O)N2CCCCC2)cc1Cl | DRD2 | – | – | – | IC50 | > 100 µM
